# Experimental data collected from several papers.
# Lines come from different studies, so protocols differ. Several values in a cell are separate wells, animals, samples, runs or records.
# Target: Serine/threonine-protein kinase BRSK1 (BRSK1, Homo sapiens, UniProt Q8TDC3)
Structure (SMILES),assay,conditions,scale,endpoint,result
COCC12C(=O)NC3C4(C(OC)CC1O)C1CC5(O)C(OC)C(O)C(OC(C)=O)(C1C5OC(=O)c1ccccc1)C3(O)C(OC)C24 (stereo not drawn),"kinase activity, inhibitor, ProQinase kinase profiling",25 µM,baseline: control,remaining activity,102% and 108%
CC(C)=CC1OC(C)(C)C2C=C3C(=O)C(Cl)=CC(O)C3C3C(O)C4OC4C(=O)C132 (stereo not drawn),"cell-free assay, competition with immobilised ligand",10 µM,,remaining binding,97%
COc1cc(Nc2nc(C)cc(-c3cnn4nc(OC)ccc34)n2)cc(C(F)(F)F)c1,inhibitor,1 µM,baseline: control,remaining activity,86%
CCN1CCN(Cc2ccc(C(=O)Nc3ccc(C)c(NCc4cnc5[nH]ccc5c4OC)c3)cc2C(F)(F)F)CC1,"binding, competition with immobilised ligand",1 µM,,remaining binding,100%
CNC(=O)C1CCN(c2cc(C)c(F)cc2NC(=O)c2ccc(-c3cc(O)ccc3C)c(C)c2)CC1,"binding, competition with immobilised ligand",1 µM,,remaining binding,83%
Cc1cccc(O[C@H]2CCC[C@@H](C(C)CNCc3ccncc3)C2)c1 (relative stereo),"enzyme activity, inhibitor",10 µM,,inhibition,2%
NC(=O)C[C@H]1CCc2sc3ncnc(O[C@H]4CC[C@H](N5CCOCC5)CC4)c3c21,"enzyme activity, inhibitor",10 µM,,inhibition,7%
CCn1cc(C(=O)O)c(=O)c2c(N)c(F)c(NC3CCCCC3)cc21,kinase activity,"0.1 µM, added: ATP at Km",,inhibition,8.3%
C=CC(=O)N1Cc2nc(-c3cc(-c4cc(Cl)cnc4Cl)c(F)cc3F)n(-c3ccncn3)c2C1,"cell-free assay, inhibitor",1 µM,,inhibition,9%
CN1CC[C@@H](COc2cnc(C#N)cc2-c2ccn3nc(NC(=O)C4CC4)cc3c2)C1,"enzyme activity, inhibitor",1 µM,,inhibition,7%
COc1c(OCCCN2CCOCC2)ccc2c1N=C(NC(=O)c1cnc(N)nc1)N1CCN=C21,"kinase activity, inhibitor",1 µM,baseline: untreated control,remaining activity,97%
Nc1ncc(-c2cc(-c3cnn(CC(F)(F)F)c3)ncc2F)nc1C(=O)NC1CNCC(F)C1 (stereo not drawn),enzyme activity,1 µM,baseline: DMSO control,remaining activity,64.9%
C=CC(=O)Nc1cccc(-c2cnc3[nH]cc(C(=O)NC(C)(C)C)c3n2)c1,kinase activity,0.1 µM,,inhibition,13% and 12%
O=C=[N][Ru-4]123([n]4c5ccc(O)cc5c5c6c(c7cc(F)c[n+]1c7c54)C(=O)NC6=O)[S+]1CC[S+]2CC[S+]3CC1 (stereo not drawn),enzyme activity,"100 nM, human enzyme, added: 10 µM ATP",baseline: untreated,remaining activity,92%
COc1ccc(NC(=O)Nc2ccc3c(c2)C(=O)N(C(C)CO)CC(C)C(CN(C)Cc2ccc4c(c2)OCO4)O3)cc1 (stereo not drawn),"kinase activity, KinaseProfiler","0.03 µM, species human",baseline: control,remaining activity,98%

# Repeated from above:
Structure (SMILES),assay,conditions,scale,endpoint,result
Nc1ncc(-c2cc(-c3cnn(CC(F)(F)F)c3)ncc2F)nc1C(=O)NC1CNCC(F)C1 (stereo not drawn),enzyme activity,1 µM,baseline: DMSO control,remaining activity,64.9%
C=CC(=O)Nc1cccc(-c2cnc3[nH]cc(C(=O)NC(C)(C)C)c3n2)c1,kinase activity,0.1 µM,,inhibition,13% and 12%
